Measurements pooled from the literature.
Numbered parts are unrelated; each lists some results of a single study.

Set 1
Target: RING finger protein unkempt homolog, zinc fingers 1-6, GST-SBP tag (UNK, Homo sapiens, UniProt Q9C0B0, residues 30-357)
Sequence of UniProt Q9C0B0 (30-357, looked up): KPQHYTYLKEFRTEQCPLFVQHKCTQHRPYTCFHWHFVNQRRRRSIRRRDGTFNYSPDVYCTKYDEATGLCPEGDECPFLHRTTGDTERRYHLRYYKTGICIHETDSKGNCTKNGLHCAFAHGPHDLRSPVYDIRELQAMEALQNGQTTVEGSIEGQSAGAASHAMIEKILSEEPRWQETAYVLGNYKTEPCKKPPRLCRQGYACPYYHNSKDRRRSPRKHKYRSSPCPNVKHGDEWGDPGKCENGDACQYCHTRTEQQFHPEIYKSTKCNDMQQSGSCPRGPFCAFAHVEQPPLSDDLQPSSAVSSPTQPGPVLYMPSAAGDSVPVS
Method: RNA Bind-n-Seq
Molecule type: RNA
Medium: in vitro
Tested at: not given
Notes: RNA with constant flanks, human and mouse sites, ends assumed
Reference: input RNA pool
Reading: higher = stronger binding
Constant ends, left off below: GGGAGUUCUACAGUCCGACGAUC … CAACAGAGGAUUGAGCAUCA
Sequence	bound/input enrichment [ratio]
GCUGAGCCUCAGCUGUAUGGUAAUGCCACCAGUGACCAUCCCAACAAUCAAGAUCAAAGUAGCAGUCUUCCUGAAGAAUGUGUACCUUCAGAUGAAAGUACUCCUCCGAGUAUUAAAAAA	0.227
UUAGUCAUGGAAUACGCGAGUGGGGGUGAAGUAUUUGAUUACUUAGUUGCCCAUGGAAGAAUGAAAGAGAAAGAGGCCCGUGCAAAAUUUAGGCAGAUUGUAUCUGCUGUACAGUAUUGU	0.379
GAAGACUGAAUUUGUACGAAUUUCAGUUUAAUGUGCUAAUCUAACAGAUGCACUAUGGACCAUAGGAAGGCUAGAGAUUGUGAAUUCUUCAGACAGAUUUCCCUGCAAUUCAGGCUGUGG	0.179
GCACAUGCCACUGUCACCAAAACAAACAACUACCACUUUCCAAAUUUCAUUCAGAACCAUUUUAGUGUUUUCCUAUUCCCUACCCCUCCCACUACUUUCAAUGAUGAAAUACCCUAAGUU	7.03
GCCCACUUAACUGUGAAAAAGAUAUUUGUUGGUGGCAUUAAAGAAGACACUGAAGAACAUCACCUAAGAGAUUAUUUUGAACAGUAUGGAAAAAUUGAAGUGAUUGAAAUCAUGACUGAC	0.144
GUGGCAAGCAAAAGAAAAGAGCUUUCACAAAAUACAGAUGAGUCUGGAUUAAAUGAUGAAGCCAUCGCCAAGCAAUUACAGCUUGAUGAAGAUGCGGAGCUGGAGAGGCAGUUGCAUGAA	0.262
UCAGGUACUUUGGAGGCCACAGAAAAGGAACCAGUGAACAAGGAAUCGGAGGAAAUGAGUGUAGUAUUUAUUUCUAAUUUGCCUAACAAAGGAUAUUCUACAGAAGAAAUUUACAACUUA	0.342
UUUUUGGGAAUUGCUUACAUCACUAUUGGAUCCAUCUCUUUCCUUCUGGGAGUUGUACUGCUAGUAAUUAAUCAUAAAUAUAGAAACAGUAGUAACACUGCUGACAUCACCAUUUAAUUU	8.92
GAAUUUUCUGAAUGCUUUCAUAGACAAAAACGCAUUUAAACUAUGUUUACCUGGUUUUCCAACAGAAAUCAAAUGAUUUUAAUAUUAUGUUUUGAUGGGUUAUUUUCAGAGUUGUUUGGU	0.248
CCGUGCGGGUUCCAGCCCGCGUCCCGCGGCGGCGGCGAGCAAGAGACGCAGGAGCUGGCCUCGAAGCGGCUGGACAUCCAGAACAAGCGCUUCUACUUAGAUGUGAAGCAGAACGCCAAG	0.159
AGUAUGAAUAUGAAGAGUAGAUUUGAUAUCAAAUCAAUGGCAGGGAACAUUAUUCCUGCUAUUGCUACUACUAAUGCAGUAAUUGCUGGGUUGAUAGUAUUGGAAGGAUUGAAGAUUUUA	0.311

Set 2
Target: Fragile X messenger ribonucleoprotein 1, C-terminal low-complexity region (Fmr1, Mus musculus, UniProt P35922)
Method: RNA Bind-n-Seq
Molecule type: RNA
Medium: in vitro
Tested at: 200 nM
Notes: whole 134-nt RNA, ends assumed
Together with: 150 mM LiCl
Reference: input library
Reading: higher = stronger binding
Each molecule: 7-deaza-guanosine replaces G
Constant ends, left off below: GGGAGUUCUACAGUCCGACGAUC … UGGAAUUCUCGGGUGUCAAGG
Sequence	log2 enrichment
ACCAUGCAGGUGGGCAUCUUUGGGAAGUGGGGCAAGGGGGGGGUAGGGAGGGGGGUAACACUUUGGGAACAGGUGGUCCCAGGUCGUUUC	1.27
AAGUCCUGUGCUACACAUCGUAUGUACCGAAUCGGAAAAAGGAAAGGAAAAAAAGGAAAGUAUUAUGUUACGCCGUUCGGAUCUGCACUU	-1.05
UCCUGUGCUACACAUCGUAUGUACCGAAUCGGGUUUUUGGGUUUUUGGGAAAAAAAGGGAAAGUAUUAUGUUACGCCGUUCGGAUCUGCA	-0.823
AGUCCUGUGCUACACAUCGUAUGUACCGAAUCGGGUUUUGGGGUUUUGGUUUUGGGGAAAGUAUUAUGUUACGCCGUUCGGAUCUGCACU	-1.77
AGUCCUGUGCUACACAUCGUAUGUACCGAAUCGGGGUUUUUUUGGGGAGGGGAGGGGAAAGUAUUAUGUUACGCCGUUCGGAUCUGCACU	0.157
GUCCUGUGCUACACAUCGUAUGUACCGAAUCGGAAAAAGGAAAAAGGGGAAAAAGGGGAAAGUAUUAUGUUACGCCGUUCGGAUCUGCAC	0.226
AGUCCUGUGCUACACAUCGUAUGUACCGAAUCGGGGCCCCGGGCCCCGGGGCCCCGGAAAGUAUUAUGUUACGCCGUUCGGAUCUGCACU	0.455
CACAGACAACACGCACGCACACAGACACAGAGGGAAGGGGUUGGGAUGGGGACAGGGUGCACAGCAGGGCGGGGUAGGACCCCAGCCCCU	0.929
CAAGUCCUGUGCUACACAUCGUAUGUACCGAAUCGGGGUUUGGGGAGGGGAGGGGAAAGUAUUAUGUUACGCCGUUCGGAUCUGCACUUC	0.122
CUCAAGUCCUGUGCUACACAUCGUAUGUACCGAAUCGGUGGUGGUUUUUUUGGAAAGUAUUAUGUUACGCCGUUCGGAUCUGCACUUCCA	0.658
CAAGUCCUGUGCUACACAUCGUAUGUACCGAAUCGGUUUUUGGAGGAAAAAAAGGAAAGUAUUAUGUUACGCCGUUCGGAUCUGCACUUC	-1.19

Set 3
Target: Prothrombin, mature alpha-thrombin (F2, Homo sapiens, UniProt P00734)
Method: aptamer microarray, sandwich
Molecule type: DNA with 2'F-ANA
Medium: in vitro
Tested at: 200 nM
Notes: whole 15-mer aptamer, many near background
Together with: Cy3 exosite-II aptamer, 400 nM
Reading: higher = stronger binding
Sequence: GGTTGGTGTGGTTGG
Modification	mean fluorescence intensity [a.u.]
2'F-ANA at 2 5 6 7 9 10 15	64.8
2'F-ANA at 1 2 3 4 5 7 10 13	48.1
2'F-ANA at 5 6 10 13 15	60.4
2'F-ANA at 2 3 4 5 8 12 13 14 15	54.5
2'F-ANA at 1 3 4 6 7 8 9 12 13 14	75.2
2'F-ANA at 2 3 4 6 9 11 12 13 15	471
2'F-ANA at 6 7 11 12 13 14	198
2'F-ANA at 1 7 11 13	150
2'F-ANA at 5 6 7 8 9 11 14 15	47.3
2'F-ANA at 1 4 5 6 9 10 12 13 15	62.3
2'F-ANA at 1 2 3 6 7 10 11 12 13 14	55.2
2'F-ANA at 3 4 7 8 9 11 13 14 15	293
2'F-ANA at 3 5 6 7 8 10 12 13 15	55.3
2'F-ANA at 1 3 4 5 6 8 9 11 12	108
2'F-ANA at 2 3 4 11 12 15	744
2'F-ANA at 1 2 3 6 7 8 9 10 11 13 14 15	54.7
2'F-ANA at 1 2 3 4 7 9 13	107
2'F-ANA at 2 3 7 9 12 15	1010
2'F-ANA at 1 3 4 6 7 11 15	164
2'F-ANA at 3 4 7 8 11 14 15	402
2'F-ANA at 1 8 14	59.6
2'F-ANA at 2 13 14 15	123

Set 4
Target: RNA binding protein fox-1 homolog 2, RRM domain, GST-SBP tag (RBFOX2, Homo sapiens, UniProt O43251-10, residues 100-194)
Method: RNA Bind-n-Seq
Molecule type: RNA
Medium: in vitro
Tested at: 365 nM
Notes: natural RNA segment, single round, ends assumed
Reference: no-protein control
Reading: higher = stronger binding
Constant ends, left off below: GGGAGUUCUACAGUCCGACGAUC … UGGAAUUCUCGGGUGCCAA
Residues (chain): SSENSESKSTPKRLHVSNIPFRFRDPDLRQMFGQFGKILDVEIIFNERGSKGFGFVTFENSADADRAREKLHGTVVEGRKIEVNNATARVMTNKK
Sequence	RBNS enrichment (R)
UUUCACUACCACUGUUAUGUCACUGGGUAAAAGCCUCAAACUGUUAAAUAUAUGGGAGACUGAUUAUAAAGAAUAAAGAAUAUUUGCAUUUACUUAUGCAACUACUAAUU	0.559
UUUUCUGGAGUAUAUUUGUACCAUAUUGUAACAAAAUGAUCCUGGCCACAAAAUAAAACACACACUGAUCAAAGCCGGCUAUACUGGCAUUGCAUAUCUUUGCUAUUCAA	0.293
CAAAAGCGGCAGAUCUUUACUGAAAGAGAGAGCAGCUGUUAUGCAACAUAUAGAAAAAUGUAUAGAUGCUUGGACAGACCCGGUAAUGGGUGGCCAUUGGUAAAUGUUAG	1.18
CGUGGAGUGGUCCUAACAAGAGAGCCUGACCUUAGGCUGUACACACACUGUGGAAUUUCUUCAAGGGAGCUGCCGGCCGGCGCAGAACCCCCAGGAGCACAGGUCUCUCC	0.305
GGCUUUGCCCCCGUGGAUUUGUCAGACUUCGUGGAGCAGUGUUAAGGUGGACAUGGGAUUCCUCACUGGGAAGAGAGUUUUUCCCAUGCAGAGAGCCCCAUUAUCUCCUC	0.373
CCUAAGCCACCUGCCCCUAGAGCCACAGCUGACCUGUGUGGAAACAGGGCUUUUUAUAACUAAAACCAGUUCACUAGAGACCUAGGAAUGGGCUGGGCUGAAAGUGAAAU	0.642
CUGUUUCAACAGGAAAGUAGAUGUUUUGUGCUCCUUUUUGGAUUUUAUCUUCUUGCACAUGUUUGUACAGAAAUCACCUUCAUCCUUGUGGUGCUUACACACACCCAGUU	0.403
GUAGAUGGAGAGAAAGUCAGAAAGAGGCAGCAGGAGAGAGGUAUACUUGGGACCAGAUCAGCUCUGCAUCCUUCAUUCUUCCCUCUGUCUCUAUUACGCAAUGUUCCGAA	0.402
GAUGGGGGGGACGCUGCUGGUAUUCGGGUUGGGCGUUUCCCAAUAAACCACCAAUCUUCAUAUUGUGCCUUCAUCUCCCUCCAAAAGCCUCUUGGGACAGUGGCCAGUCA	0.335
GAACUUGGCCCUCUCCUUUCUUCCUGUUAAGUCUGAGAGGGAAGAGCUAGGCUAUGAAGGGAAGAUGUGGCCGUACGUGGGAAUAACCAGUGUCCCACGCUCAUUUUCCC	1.14
GCCAGUCAGAGACAAGUCCCAAGAGAUUUCAUGGAGCCUUGGAUGACACACACGCCAUCAGCCCUUGGGUGAUGACAGUGACCAGUGUUGUAUGGGGCUUUCCCAGAAUC	0.277
AUGAUUAAAAAAAAUUCAAGCUCAAUACCCACAUAAAUUAUAACGUUUCUCAGGAAGUAGUCCCUUAACCAAAACGUCUCUGAGAAGUGAUGCUUAGGUAAUCUCUGGGA	0.484

Excerpt of the above (set 4):
Sequence	RBNS enrichment (R)
CGUGGAGUGGUCCUAACAAGAGAGCCUGACCUUAGGCUGUACACACACUGUGGAAUUUCUUCAAGGGAGCUGCCGGCCGGCGCAGAACCCCCAGGAGCACAGGUCUCUCC	0.305
UUUUCUGGAGUAUAUUUGUACCAUAUUGUAACAAAAUGAUCCUGGCCACAAAAUAAAACACACACUGAUCAAAGCCGGCUAUACUGGCAUUGCAUAUCUUUGCUAUUCAA	0.293
CAAAAGCGGCAGAUCUUUACUGAAAGAGAGAGCAGCUGUUAUGCAACAUAUAGAAAAAUGUAUAGAUGCUUGGACAGACCCGGUAAUGGGUGGCCAUUGGUAAAUGUUAG	1.18
GAACUUGGCCCUCUCCUUUCUUCCUGUUAAGUCUGAGAGGGAAGAGCUAGGCUAUGAAGGGAAGAUGUGGCCGUACGUGGGAAUAACCAGUGUCCCACGCUCAUUUUCCC	1.14
GCCAGUCAGAGACAAGUCCCAAGAGAUUUCAUGGAGCCUUGGAUGACACACACGCCAUCAGCCCUUGGGUGAUGACAGUGACCAGUGUUGUAUGGGGCUUUCCCAGAAUC	0.277
UUUCACUACCACUGUUAUGUCACUGGGUAAAAGCCUCAAACUGUUAAAUAUAUGGGAGACUGAUUAUAAAGAAUAAAGAAUAUUUGCAUUUACUUAUGCAACUACUAAUU	0.559
AUGAUUAAAAAAAAUUCAAGCUCAAUACCCACAUAAAUUAUAACGUUUCUCAGGAAGUAGUCCCUUAACCAAAACGUCUCUGAGAAGUGAUGCUUAGGUAAUCUCUGGGA	0.484
